Published values pooled from the literature.
A part holds a random share of what one study measured.

Study 1
Target: Sal-like protein 4, full length isoform A (SALL4, Homo sapiens, UniProt Q9UJQ4, residues 1-1053)
Chain of UniProt Q9UJQ4 (whole entry, looked up): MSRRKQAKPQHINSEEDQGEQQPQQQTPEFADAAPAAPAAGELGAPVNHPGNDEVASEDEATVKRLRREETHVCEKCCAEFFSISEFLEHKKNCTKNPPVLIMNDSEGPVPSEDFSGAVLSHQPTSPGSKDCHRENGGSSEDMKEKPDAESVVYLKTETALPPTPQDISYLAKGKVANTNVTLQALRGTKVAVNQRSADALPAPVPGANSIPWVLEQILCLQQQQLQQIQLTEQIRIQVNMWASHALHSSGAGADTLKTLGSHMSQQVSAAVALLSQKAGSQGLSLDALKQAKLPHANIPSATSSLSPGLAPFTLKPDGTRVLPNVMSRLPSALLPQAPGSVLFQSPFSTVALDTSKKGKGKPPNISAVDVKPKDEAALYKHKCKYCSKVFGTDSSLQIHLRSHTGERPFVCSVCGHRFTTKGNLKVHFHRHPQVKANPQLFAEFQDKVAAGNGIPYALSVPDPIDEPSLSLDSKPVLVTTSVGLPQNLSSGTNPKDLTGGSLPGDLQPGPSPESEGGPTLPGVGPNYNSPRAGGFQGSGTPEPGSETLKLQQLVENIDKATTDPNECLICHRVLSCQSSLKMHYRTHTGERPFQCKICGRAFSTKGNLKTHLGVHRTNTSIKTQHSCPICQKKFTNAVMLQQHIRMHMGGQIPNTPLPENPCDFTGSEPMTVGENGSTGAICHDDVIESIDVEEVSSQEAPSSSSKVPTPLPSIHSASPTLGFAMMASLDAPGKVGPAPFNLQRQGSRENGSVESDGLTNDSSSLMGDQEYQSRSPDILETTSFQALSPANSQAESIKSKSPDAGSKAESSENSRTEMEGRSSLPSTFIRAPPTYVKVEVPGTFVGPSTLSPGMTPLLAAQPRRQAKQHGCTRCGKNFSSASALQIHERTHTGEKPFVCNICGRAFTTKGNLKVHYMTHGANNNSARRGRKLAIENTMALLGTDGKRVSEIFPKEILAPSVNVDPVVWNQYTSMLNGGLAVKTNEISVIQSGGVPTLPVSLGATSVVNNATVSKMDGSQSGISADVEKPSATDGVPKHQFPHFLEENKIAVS
Method: universal PBM
Form: double-stranded DNA, one strand shown
Matrix: in vitro
Concentration: 600 nM
Notes: 8-mer, flanks averaged, mean of replicates
Direction: higher = stronger binding
Quantity: E-score
Strand = CTTATAGC; result = 0.113
Strand = AGTACCAG; result = -0.16
Strand = CCATGAAG; result = -0.0165
Strand = CCTCTGTA; result = 0.0302

Study 2
Target: RNA binding protein fox-1 homolog 2, RRM domain, GST-SBP tag (RBFOX2, Homo sapiens, UniProt O43251-10, residues 100-194)
Method: RNA Bind-n-Seq
Form: RNA
Matrix: in vitro
Concentration: 365 nM
Notes: natural RNA segment, single round, ends assumed
Baseline: no-protein control
Direction: higher = stronger binding
Quantity: RBNS enrichment (R)
Constant ends, left off below: GGGAGUUCUACAGUCCGACGAUC … UGGAAUUCUCGGGUGCCAA
Residues (chain): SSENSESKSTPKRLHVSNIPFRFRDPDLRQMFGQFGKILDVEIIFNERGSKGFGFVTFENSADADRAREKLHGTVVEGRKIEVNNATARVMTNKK
Strand = GUUACAUAAAUGAGAAAAAGCUAUUAUGCUGAUGGAGCAUGCUUUUUAAAUCCUUUAAAAACACUCACCAUAUAAACUUGCAUUUGAGCUUGUGUGUUCUUUUGUUAAUG; result = 3.46
Strand = GUCACUGUCACUGUGGCGGGACAGAGUGCUUCGGUAUAAGCCCGCAGGCUUCUGGUUCUUGGUUCUAUUAUGCCACUUCUCCGGUUCUUUCUAUCCCAAGGAGAGUGUGA; result = 0.483
Strand = CUUCUUCAUGGGUGGCUCAGAUGGUGGCUACACCAUUUGUGAGGAGCCAUGGCCACUCCUGUGCCGGGGAAGACAUCACAUACCUUCAGCACUUCUCACAAUGUAACUGC; result = 0.3
Strand = GCAAGAAAUCAUAAAAUGAAGACUUAUACCAUUGUGUUUAAGCUGUAUUGAAUUAUCUGUGGAAUGCAUUGUGAACUGUAAAGCAAAGUAUCAAUAAAGCUUAUAGACUU; result = 0.698
Strand = UGCCACAGACAGCACAGCCCUUGCCCAGAAGCAGCUGAACAAUUCCUAACCCAUUUCAUCUCGGUUCUGUAUGGGUUUUUCCCGUGCAUGGAAGGGAGGCAGCUCAGGGA; result = 3.71
Strand = CUUCAAUCCAGCUUUCCCCCUUCUUGUUUGCACAUGCCAAGAUAACUGCUUUUAUGCAGGCUUUACCCCUGAAAAACUCCUUUCUACAGUGCUGCUCACGAGAGCCCAGC; result = 0.411

Study 3
Target: Ras GTPase-activating protein-binding protein 1, full length (G3BP1, Homo sapiens, UniProt Q13283)
Chain of UniProt Q13283 (whole entry, looked up): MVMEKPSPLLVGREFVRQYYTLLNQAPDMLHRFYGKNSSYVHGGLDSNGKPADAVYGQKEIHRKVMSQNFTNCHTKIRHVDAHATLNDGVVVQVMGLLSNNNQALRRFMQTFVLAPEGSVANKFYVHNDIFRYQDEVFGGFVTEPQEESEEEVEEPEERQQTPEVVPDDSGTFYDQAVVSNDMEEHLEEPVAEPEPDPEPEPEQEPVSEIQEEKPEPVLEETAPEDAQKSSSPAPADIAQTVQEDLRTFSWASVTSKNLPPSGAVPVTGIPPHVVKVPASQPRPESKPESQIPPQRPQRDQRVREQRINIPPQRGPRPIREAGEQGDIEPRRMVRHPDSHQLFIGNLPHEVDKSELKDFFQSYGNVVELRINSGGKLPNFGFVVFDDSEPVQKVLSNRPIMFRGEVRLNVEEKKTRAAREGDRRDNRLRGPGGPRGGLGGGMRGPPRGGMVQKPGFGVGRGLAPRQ
Method: RNA Bind-n-Seq
Form: RNA
Matrix: in vitro
Concentration: 200 nM
Notes: whole 134-nt RNA, ends assumed
Added: 150 mM KCl
Baseline: input library
Direction: higher = stronger binding
Quantity: log2 enrichment
Constant ends, left off below: GGGAGUUCUACAGUCCGACGAUC … UGGAAUUCUCGGGUGUCAAGG
Strand = CUCAAGUCCUGUGCUACACAUCGUAUGUACCGAAUCGGGUUUGGGAGGGUGGGAAAGUAUUAUGUUACGCCGUUCGGAUCUGCACUUCCA; result = 1.18
Strand = AAGUCCUGUGCUACACAUCGUAUGUACCGAAUCGGGGUUUGGGUUUGGGUUUGGGGAAAGUAUUAUGUUACGCCGUUCGGAUCUGCACUU; result = 0.466
Strand = AAGUCCUGUGCUACACAUCGUAUGUACCGAAUCGGAAAAAGGUUUUUGGUUUUUGGAAAGUAUUAUGUUACGCCGUUCGGAUCUGCACUU; result = -1.66
Strand = GCAGGAAGUAAAAACAAAUGGAAAUGCUUCGGAUAGUGGCAGGGGUGGGGGGUGCUAAGGAAAGGGUGGGAUGGGAGUGGGUAAAGAGUU; result = 1.2
Strand = UCAAGUCCUGUGCUACACAUCGUAUGUACCGAAUCGGAAAAAGGUUUGGUUUGGAAAGUAUUAUGUUACGCCGUUCGGAUCUGCACUUCC; result = -1.06
Strand = UCAAGUCCUGUGCUACACAUCGUAUGUACCGAAUCGGGUUUGGGUGGGUUUGGGAAAGUAUUAUGUUACGCCGUUCGGAUCUGCACUUCC; result = 1.04
Strand = AAGUCCUGUGCUACACAUCGUAUGUACCGAAUCGGAAAAAAAGGUGGAAAAAAAGGAAAGUAUUAUGUUACGCCGUUCGGAUCUGCACUU; result = -1.46

Mixed results
Substance = PhoQ, residues 284 288 289 292 302 303 HSSMNL; target = PhoP, residues 12 14 15 18 19 AQALL (Escherichia coli, UniProt P23836); assay = Sort-seq, measured: YFP reporter; test system = E. coli; conditions = PhoQ-PhoP variant library, added: 10 µM Mg2+; how to read = baseline: high Mg2+ state, higher = stronger signaling; quantity = fold induction; result = 2.13

Repeated from above (study 1):
Strand = CCATGAAG; result = -0.0165
